# Measured values collected from several papers.
# Numbered parts are unrelated; each lists some results of a single study. Substitutions count along the parent as printed.

# Series 1 — method: RNA Bind-n-Seq; form: RNA; sample: in vitro; tested at: 1 µM; setting: whole 134-nt RNA, ends assumed; together with: 150 mM KCl; baseline: input library; direction: higher = stronger binding
# Target: Ras GTPase-activating protein-binding protein 1, C-terminal RGG region (G3BP1, Homo sapiens, UniProt Q13283)
# Sequence of UniProt Q13283 (whole entry, looked up): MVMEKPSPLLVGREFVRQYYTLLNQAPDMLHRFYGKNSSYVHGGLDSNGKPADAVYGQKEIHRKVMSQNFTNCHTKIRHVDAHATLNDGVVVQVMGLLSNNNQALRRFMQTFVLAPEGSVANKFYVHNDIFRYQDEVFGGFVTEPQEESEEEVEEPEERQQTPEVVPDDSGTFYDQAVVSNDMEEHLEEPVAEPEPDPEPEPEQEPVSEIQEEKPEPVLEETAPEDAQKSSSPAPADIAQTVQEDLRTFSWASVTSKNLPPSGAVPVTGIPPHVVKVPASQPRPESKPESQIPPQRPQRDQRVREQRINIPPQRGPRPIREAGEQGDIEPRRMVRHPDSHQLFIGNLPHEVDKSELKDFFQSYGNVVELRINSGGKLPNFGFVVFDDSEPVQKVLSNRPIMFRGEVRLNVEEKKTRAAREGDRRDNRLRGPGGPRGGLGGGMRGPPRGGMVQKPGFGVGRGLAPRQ
# All sequences stand within: GGGAGUUCUACAGUCCGACGAUC … UGGAAUUCUCGGGUGUCAAGG
Strand,log2 enrichment
UCCUGUGCUACACAUCGUAUGUACCGAAUCGGUUUUUUUGGAAAAAAAGGAAAAAAAGGAAAGUAUUAUGUUACGCCGUUCGGAUCUGCA,-1.37
GCAGGAAGUAAAAACAAAUGGAAAUGUUUCGGAUAGUGGCAGGGGUGGGGGUUGCUAAGGAAAGGGUGGGAUGGGAGUGGGUAAAGAGUU,1.46
UUUUCAAGGGGGCCCCAACUGGGGCCGCCUUGUAGCCUUCUUUGUCUUUGGGGCUGCACUGUGUGCUGAGAGUGUCAACAAGGAGAUGGA,-1.55
CUCAAGUCCUGUGCUACACAUCGUAUGUACCGAAUCGGGGUGGGUGGGGUGGGGAAAGUAUUAUGUUACGCCGUUCGGAUCUGCACUUCC,1.39
GUCCUGUGCUACACAUCGUAUGUACCGAAUCGGGUUUUUGGGUUUGGGUUUUUUUGGGAAAGUAUUAUGUUACGCCGUUCGGAUCUGCAC,0.0681
UAACUUUAGAGGAGGAUCUGAUGGAUAUGGCAGUGGACGUGGAUUUGGGGAUGGCUAUAAUGGGUAUGCAGGAGGACCUGGAGGUGGCAA,-1.03
CUGUGCUACACAUCGUAUGUACCGAAUCGGGAAAAAAAGGGAAAAAAAGGGUUUUUUUGGGAAAGUAUUAUGUUACGCCGUUCGGAUCUG,-1.76
CAAGUCCUGUGCUACACAUCGUAUGUACCGAAUCGGAAAGGUUUGGUUUUUUUGGAAAGUAUUAUGUUACGCCGUUCGGAUCUGCACUUC,-1.7
UGAGAAACUUGCUCAAAUAUUGGCAGCUAGACAGUUAGAAAUUAAACAGAUUCCAUCUGAUGGCCACUGUAUGUAUAAAGCCAUUGAAGA,-1.63
GCAGGAAGUAAAAACAAAUGGAAAUGCUUCGGAAAAUGGCAGGGGUGGGGGUUGCUAAGGAAAGGGUGGGAUGGGAGUGGGUAAAGAGUU,1.85
CUGUGCUACACAUCGUAUGUACCGAAUCGGGAAAAAAAGGGUUUUUUUGGGAAAAAAAGGGAAAGUAUUAUGUUACGCCGUUCGGAUCUG,-2.14
GCAGGAAGUAAAAACAAAUGGAAAUGCUGCGGAUAGUGGCAGGGGUGGGGGUUGCUAAGGAAAGGGUGGGAUGGGAGUGGGUAAAGAGUU,1.48
CAAGUCCUGUGCUACACAUCGUAUGUACCGAAUCGGGGAAAGGGGAAAGGAAAGGAAAGUAUUAUGUUACGCCGUUCGGAUCUGCACUUC,-1.01
CACAGACAACACGCACCCACCCAGACACAGAGGGAAGGGGUUGGGAUGGGGACAGGGUGCACAGCAGGGCGGGGUAGGACCCCAGCCCCU,-0.165

# Series 2 — method: RNA Bind-n-Seq; form: RNA; sample: in vitro; tested at: 365 nM; baseline: no-protein control; direction: higher = stronger binding
# Target: RNA binding protein fox-1 homolog 2, RRM domain, GST-SBP tag (RBFOX2, Homo sapiens, UniProt O43251-10, residues 100-194)
# Setting: natural RNA segment, single round, ends assumed
# All sequences stand within: GGGAGUUCUACAGUCCGACGAUC … UGGAAUUCUCGGGUGCCAA
# Residues (chain): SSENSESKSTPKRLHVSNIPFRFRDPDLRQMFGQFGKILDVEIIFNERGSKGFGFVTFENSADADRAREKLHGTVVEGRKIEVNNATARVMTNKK
Strand,RBNS enrichment (R)
GUGCGUGCGGGCGUCAGUUUCCAGGAUAGCCGUGCUGCAGUCCAGUUAGGCUGUUCUCCUGAGCUGCAGGUGCCCAGGUCUGACUCUCCUUCUCUGCUUAUCCCCAGGCA,0.605
UAGUCAGUGCCCUAAGUAUUCGUAGAGUGAAGAAUGCCAGCCUCUCUUGUCCCUGGUUUCCUUAUGUGUUGAAUGUGGUUGAGUUUGUCCAUUGCUAGGGAGAGACUUCC,4.34
UUUGUCAGAACCUUCCAGUCCCUUCUUACUCCCCGGUUAACUGAGGUUUUUACCAAUUUCUAGAGCAGUUCAAACCCUAAGUGCUCAAGCGCUUACACAUCCCCUCUGGU,0.408
CUAUUAUAAUUCAAUAAUUCUUUUGUUUACUGCCCUUUUCUGUUCAAGAAUUUUCUGGAAAUUACUCCCUUUCACAUGGUUGAACUCUUAAGUUGACCAGUUCUCAUAGC,0.268
GUUCCCCAGGAAAUGAUCUUCCACUUGAGCAACCUUUUACUUGAUACGAUUUGCACCUUUCUGUUUUCCUGCAGUCAGGGUGGUGGCCUGCAGGGACCUGAGCUUUGCUA,0.963
GCUGUUCGCCUUCCUGCUGGUUGAUUGCAGAACCACCUCUGAGACCUCUGUACCUGCUCUUGGAAUGUCUCUGUCUUUGCCCUGCCGCCCACUUCCCGUGCCUAUGAUUU,3.99
GCUUCAUAAUUUCCAUGAUACAAAGAUCUUUUUUCAGGUGGAUUUUUACCUUUGUUCCUUUUGCUCUGAUAGACAAAAUCAGUUUAGGACUAUUAAAGAAUGUUUUGGAA,0.519
AAGGCAGACACCCAAUCCUGCCCCCACACUCGGGGUCCUCCAAGAGGUUGGGGGGCAGAGUCCCAGAGCAGCCCUUUACCCCAGGUCCAGGCCCUGGAAUCCUGAGACUC,0.247
CCACCUUAAUCAGCAUCACUUGCAGAGACUGACCCUAAACAACACAGCAGGGGCAGGGAACGGGUAGGACUUGACCCUCUUGAAGGCAGCCCAGGAUGGGAGUAGGGUAU,1.22
ACUACUAUUCAAGCAGAGAUUUUGUCUAAUAGAACAUGCCUUUCUUGCUUUUGCUUCUUUUCUUUUGAGACAUGUACCCUUUCUGAUUGGAUAAUUGAUGUUUAGCCAAG,0.555
CCAUAGAGAGUUUGUAGGUAUUUCCAGGGAUGGAGAAGAUCUAAGCAUUUGACUUCCCCAUCAGUACAUUUGUUCAUUUGCUUUCUCUGUGAAACGCCAUGAUUGUCUAA,1.98
AUCUUUAAAUUAUAGAGCUCAGUAAUCAAUUUAAAGACAGUGUUAAGCUACUCACAGUGGCAAAUGCCUUUUAUCCUAGCACUCCUUAAGCAGAGGCAAACAGGUUUCUU,0.254

# Series 3 — target: CCND1, cyclin fold, Cln2 fusion (human); method: yeast growth competition, sequencing; sample: yeast; setting: weak parent motif; baseline: not given; direction: higher = stronger binding
# Parent: MASTL docking peptide (human); PMIAKNLMCELDE
Change,normalised enrichment score
PMIAKNLMCELKE [D12K],0.0477
PMIAKNLMCLLDE [E10L],0.186
PMIAKNLDCELDE [M8D],0.3
PVIAKNLMCELDE [M2V],0.318
PMIAKNLMCELME [D12M],0.325
PMIAKNLMWELDE [C9W],0.144
PMIAKNAMCELDE [L7A],-0.241
PRIAKNLMCELDE [M2R],0.256
PMIGKNLMCELDE [A4G],-0.0565
PMIAKNLMCELSE [D12S],0.0334
PMIAKNLMCGLDE [E10G],-0.00454
PMIADNLMCELDE [K5D],0.242
PMIAKNRMCELDE [L7R],-0.21
PMIAKPLMCELDE [N6P],0.449
PMIAKNLMCNLDE [E10N],0.0644
PMIAHNLMCELDE [K5H],-0.148
PMIAKNYMCELDE [L7Y],0.00204
PMIAKNSMCELDE [L7S],0.0634
PMIAKNLMCEADE [L11A],-0.00361
PMIATNLMCELDE [K5T],-0.223
PMIAKNLMCECDE [L11C],-0.00821
PDIAKNLMCELDE [M2D],0.301
PMIAKNLKCELDE [M8K],0.253
PMPAKNLMCELDE [I3P],0.101

# Series 4 — method: RNAcompete; form: RNA; sample: in vitro; tested at: 20 nM; setting: 7-mer, probes averaged, single round; baseline: mean of 7-mers; direction: higher = stronger binding
# Target: PABPC1L2, full length, GST fusion (mouse, UniProt A0ABA7IW68)
# Target sequence (chain): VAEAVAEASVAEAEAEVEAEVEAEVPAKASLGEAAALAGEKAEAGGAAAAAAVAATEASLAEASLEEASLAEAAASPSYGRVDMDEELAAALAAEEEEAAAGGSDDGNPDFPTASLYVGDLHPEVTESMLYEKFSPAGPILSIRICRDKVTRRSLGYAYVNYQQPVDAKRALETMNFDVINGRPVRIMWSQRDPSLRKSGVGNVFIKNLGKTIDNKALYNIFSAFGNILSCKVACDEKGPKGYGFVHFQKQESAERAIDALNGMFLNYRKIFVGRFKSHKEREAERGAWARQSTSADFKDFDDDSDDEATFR
Strand,7-mer Z-score
GCCUUUA,-0.151
ACUUUUC,-0.298
GGGGUAA,0.447
CUAUAAC,-0.146
GAGCGCU,-0.233
GAUUUUU,-0.242
GUCAACC,-0.166
AGUUUGU,-0.344
GUAAAGG,0.267
CAUAGCU,-0.197
UCAGACC,-0.0264
CGAUUCU,-0.199
UAAUCAC,-0.238
GCACCUA,-0.191

# Series 5 — method: DHFR PCA, dose-response; sample: yeast; setting: Hill fit, mean, not affinity; together with: (+)-ABA, dose series; direction: lower = more sensitive
# Target: ABI1, truncated, D143A, DHFR fusion (Arabidopsis thaliana, UniProt P49597)
# Parent: PYL1, truncated, DHFR fusion (Arabidopsis thaliana, UniProt Q8VZS8); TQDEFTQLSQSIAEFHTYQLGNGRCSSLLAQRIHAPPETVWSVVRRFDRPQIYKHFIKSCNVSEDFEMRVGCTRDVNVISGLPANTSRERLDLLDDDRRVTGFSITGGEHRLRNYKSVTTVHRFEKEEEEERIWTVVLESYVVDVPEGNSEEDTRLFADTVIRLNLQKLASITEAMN
Change,ABA EC50
L91M,8.36 µM
I79L,30.8 µM
L20A,1.8 µM
Q10V,3.46 µM
F157L,7.27 µM
R45A,61.8 µM
R123H,1.93 µM
T73W,6.38 µM
T173E,652 µM
Q31F,106 µM
I12D,205 µM
L94Q,94.8 µM
E130C,2.62 µM
S9C,6.27 µM
D48V,972 µM
I52S,3.36 µM
S27D,5.04 µM
V161C,126 µM
C25F,59.8 µM
E174K,23 µM
R163Q,6.98 µM

# Excerpt of the above (series 4):
Strand,7-mer Z-score
CAUAGCU,-0.197
GGGGUAA,0.447
UCAGACC,-0.0264
ACUUUUC,-0.298
AGUUUGU,-0.344
UAAUCAC,-0.238
GUAAAGG,0.267
